Assay results collected from several papers.
A part holds a random share of what one study measured. Positions count from the first letter of the parent shown.

Set 1
Target: CCNF, cyclin fold, Cln2 fusion (human)
Method: yeast growth competition, sequencing
Sample: yeast
Notes: weak parent motif
Relative to: not given
Direction: higher = stronger binding
Starting sequence: FZR1 docking peptide (human); QDYERRLLRQIVI; partner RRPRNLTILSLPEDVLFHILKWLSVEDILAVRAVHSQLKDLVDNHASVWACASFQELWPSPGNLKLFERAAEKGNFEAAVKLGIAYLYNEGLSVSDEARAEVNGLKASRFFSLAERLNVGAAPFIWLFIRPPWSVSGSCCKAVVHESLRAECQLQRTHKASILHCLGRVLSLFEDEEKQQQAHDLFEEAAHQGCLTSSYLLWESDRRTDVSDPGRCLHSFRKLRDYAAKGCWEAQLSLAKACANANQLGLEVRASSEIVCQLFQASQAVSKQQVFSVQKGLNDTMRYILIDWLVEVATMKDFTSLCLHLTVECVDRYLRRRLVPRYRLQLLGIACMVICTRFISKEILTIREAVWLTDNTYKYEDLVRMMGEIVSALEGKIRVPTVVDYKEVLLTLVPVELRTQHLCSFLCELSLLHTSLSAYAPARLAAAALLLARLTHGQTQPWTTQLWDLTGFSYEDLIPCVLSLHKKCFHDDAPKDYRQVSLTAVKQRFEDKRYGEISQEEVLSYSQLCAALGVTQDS
Variant | normalised enrichment score
QDYERRLLRQIVA [I13A] | 0.984
QDYERRLLAQIVI [R9A] | -0.364
QDYERRLFRQIVI [L8F] | 0.615
QDYEARALRQIVI [R5A L7A] | 0.47
QAYERRLLRQIVI [D2A] | 1.28
QDYERRLLRQIAI [V12A] | 1.37
QDYERRALRQIVI [L7A] | 1.03
QDYEARLLRQIVI [R5A] | 0.606
QDYARRLLRQIVI [E4A] | 2.07
QDYEKRLFRQIVI [R5K L8F] | 0.297

Set 2
Target: Sal-like protein 4, full length isoform A (SALL4, Homo sapiens, UniProt Q9UJQ4, residues 1-1053)
Chain of UniProt Q9UJQ4 (whole entry, looked up): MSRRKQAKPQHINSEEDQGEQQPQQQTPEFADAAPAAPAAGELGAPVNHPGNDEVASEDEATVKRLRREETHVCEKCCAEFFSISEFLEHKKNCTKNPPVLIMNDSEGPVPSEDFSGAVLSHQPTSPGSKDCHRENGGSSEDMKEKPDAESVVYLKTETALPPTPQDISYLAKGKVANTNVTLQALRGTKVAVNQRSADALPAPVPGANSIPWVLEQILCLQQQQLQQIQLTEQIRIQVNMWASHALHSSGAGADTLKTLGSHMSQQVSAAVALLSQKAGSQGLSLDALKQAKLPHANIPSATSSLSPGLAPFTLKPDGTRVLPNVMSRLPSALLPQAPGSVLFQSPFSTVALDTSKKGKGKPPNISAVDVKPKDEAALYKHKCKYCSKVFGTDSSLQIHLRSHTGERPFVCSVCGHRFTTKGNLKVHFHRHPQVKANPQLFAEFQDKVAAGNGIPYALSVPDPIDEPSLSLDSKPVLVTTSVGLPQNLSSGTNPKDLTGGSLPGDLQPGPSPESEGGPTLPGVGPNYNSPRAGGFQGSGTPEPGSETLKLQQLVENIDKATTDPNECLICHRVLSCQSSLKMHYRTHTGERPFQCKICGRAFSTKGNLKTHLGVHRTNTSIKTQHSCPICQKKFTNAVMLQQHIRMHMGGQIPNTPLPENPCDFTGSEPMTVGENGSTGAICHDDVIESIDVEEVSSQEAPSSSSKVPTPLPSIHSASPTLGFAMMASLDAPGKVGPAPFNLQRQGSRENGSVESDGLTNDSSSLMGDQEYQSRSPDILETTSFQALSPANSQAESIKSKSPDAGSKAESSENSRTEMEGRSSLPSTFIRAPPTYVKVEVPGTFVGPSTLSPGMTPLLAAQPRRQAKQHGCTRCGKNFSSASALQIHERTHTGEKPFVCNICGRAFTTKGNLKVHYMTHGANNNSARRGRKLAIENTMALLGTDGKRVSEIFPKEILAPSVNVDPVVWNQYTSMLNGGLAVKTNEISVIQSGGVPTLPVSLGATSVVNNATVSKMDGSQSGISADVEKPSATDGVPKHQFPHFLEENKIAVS
Method: universal PBM
Molecule type: double-stranded DNA, one strand shown
Sample: in vitro
Tested at: 600 nM
Notes: 8-mer, flanks averaged, mean of replicates
Direction: higher = stronger binding
Sequence | E-score
CCACCCCA | -0.234
CCAAATAC | -0.0287
CAAGAACA | 0.0842
CATGCAGA | -0.0492
AACTGAAG | 0.108
ACTCTGGG | -0.216
CCTCGTAA | 0.0356
ATTTTGTA | 0.275
ATTCTAGA | 0.192
ACCTATGC | 0.0573
AGTTCACA | 0.127
GCGGGTCA | -0.263
AGAGAGGG | -0.256
AAACAAAG | 0.117
CAGGGACC | -0.36
ATAGGAGC | 0.149
AAGATGTA | 0.218
ATCCGGGA | -0.189
CAGTCGGA | -0.128
ACGATTCC | 0.0236
CTGATGCC | -0.0405
GATTGCTA | 0.022
GCAACTTA | 0.075
GGACCAAC | -0.269
GAAGCAAC | -0.0982

Set 3
Target: UBE2E1 UBC core domain (UniProt P51965)
Chain of UniProt P51965 (whole entry, looked up): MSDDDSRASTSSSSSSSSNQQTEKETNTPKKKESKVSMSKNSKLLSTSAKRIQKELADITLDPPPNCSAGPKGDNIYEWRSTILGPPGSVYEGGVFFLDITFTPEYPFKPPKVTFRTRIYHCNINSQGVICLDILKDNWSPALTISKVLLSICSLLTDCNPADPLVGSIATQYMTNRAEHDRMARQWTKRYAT
Method: yeast two-hybrid
Sample: yeast
Notes: mostly zero background
Relative to: not given
Direction: higher = stronger interaction
B1: DTX1 RING domain (UniProt Q86Y01); chain QKVKNPPDEDCTICMERLVTASGYEGVLRHKGVRPELVGRLGRCGHMYHLLCLVAMYSNGNKDGSLQCPTCKAIYGEKTGTQ
B2: RNF24 RING domain (UniProt Q9Y225); chain KVKELNLHELCAVCLEDFKPRDELGICPCKHAFHRKCLIKWLEVRKVCPLCNMPVLQLAQLH
B3: TRIM22 RING domain (UniProt Q8IYM9); chain KEVKMSPQEGQKRDVCEHHGKKLQIFCKEDGKVICWVCELSQEHQGHQTFRINEVVKECQEK
B4: PRKN RING domain (UniProt O60260); chain LIATNSRNITCITCTDVRSPVLVFQCNSRHVICLDCFHLYCVTRLNDRQFVHDPQLGYSLPCVAGCPNSLIKELHH
B5: RNF181 RING domain (UniProt Q9P0P0); chain VIRGSQAELKCPVCLLEFEEEETAIEMPCHHLFHSSCILPWLSKTNSCPLCRYELPTDDDTY
B6: TRIM48 RING domain (UniProt Q8IWZ4); chain ISQVFQRELTCPICMNYFIDPVTIDCGHSFCRPCFYLNWQDIPILTQCFECIKTIQQRNLKT
B7: ZNRF3 RING domain (UniProt Q9ULT6); chain DTLSSSSTSDCAICLEKYIDGEELRVIPCTHRFHRKCVDPWLLQHHTCPHCRHNIIEQKGNP
B8: Ltn1 RING domain (UniProt Q6A009); chain VDKRFEGVEDCMICFSVIHGFNYSLPKKACRTCKKKFHSACLYKWFTSSNKSTCPLCRETFF
B9: RNF135 RING domain (UniProt Q8IUD6); chain PVWLAEDDLGCIICQGLLDWPATLPCGHSFCRHCLEALWGARDARRWACPTCRQGAAQQPHLR
Sequence | lacZ reporter activity
B1 (DTX1 RING domain) | 7440
B2 (RNF24 RING domain) | 0
MDDQGCPRCKTTKYRNPSLKLMVNVCGHTLCESCVDLLFVRGAGNCPECGTPLRKSNFRV (MNAT1 RING domain (UniProt P51948)) | 0
B3 (TRIM22 RING domain) | 0
B4 (PRKN RING domain) | 0
KLWDINAHITCRLCSGYLIDATTVTECLHTFCRSCLVKYLEENNTCPTCRIVIHQSHPLQ (PCGF3 RING domain (UniProt Q3KNV8)) | 0
B5 (RNF181 RING domain) | 14900
B6 (TRIM48 RING domain) | 0
ALDRLEKLLRCSRCTNILREPVCLGGCEHIFCSNCVSDCIGTGCPVCYTPAWIQDLKI (BARD1 RING domain (UniProt Q99728)) | 0
B7 (ZNRF3 RING domain) | 0
B8 (Ltn1 RING domain) | 0
QLRRLQEERTCKVCLDRAVSIVFVPCGHLVCAECAPGLQLCPICRAPVRSRVRTF (BIRC7 RING domain (UniProt Q96CA5)) | 0
KITELNPHLMCVLCGGYFIDATTIIECLHSFCKTCIVRYLETSKYCPICDVQVHKTRPLL (BMI1 RING domain (UniProt P35226)) | 0
B9 (RNF135 RING domain) | 0
NTAPSLTVPECAICLQTCVHPVSLPCKHVFCYLCVKGASWLGKRCALCRQEIPEDFLDK (RNF146 RING domain (UniProt Q9NTX7)) | 0

Set 4
Target: JUND, bZIP domain (human)
Method: DHFR protein complementation
Sample: yeast
Notes: single substitutions, most at no-binding floor
Relative to: wild-type JUN-FOS pair
Direction: higher = stronger binding
Starting sequence: JUN, bZIP domain (human); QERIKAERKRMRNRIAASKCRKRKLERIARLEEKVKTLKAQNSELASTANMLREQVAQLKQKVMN; partner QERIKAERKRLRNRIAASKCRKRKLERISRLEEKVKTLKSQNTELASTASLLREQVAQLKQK
Variant | binding fitness
E54T | -0.863 natural log
E44C | -1.16 natural log
V35C | -0.912 natural log
A49N | -0.388 natural log
R30A | -0.348 natural log
A40H | -0.786 natural log
Q58T | -0.506 natural log
T37C | -0.633 natural log
M51T | -0.641 natural log
A40D | -0.726 natural log
E33Q | -0.846 natural log
K34A | -0.517 natural log
K34E | -0.262 natural log
E33T | -1.08 natural log
T37D | -0.551 natural log
E44F | -0.866 natural log
E33C | -1.1 natural log
E32C | -1.2 natural log
E44Q | -0.754 natural log
A49Y | -0.927 natural log
N42G | -1.16 natural log
R53Q | -1.03 natural log
A46W | -0.977 natural log
T48K | -0.933 natural log
R30H | -0.532 natural log

Set 5
Target: ABI1, truncated, D143A, DHFR fusion (Arabidopsis thaliana)
Method: DHFR PCA, deep sequencing
Sample: yeast
Notes: methotrexate growth selection, single substitutions
Together with: (+)-ABA 200 µM
Relative to: wild-type fitted maximum
Direction: higher = stronger binding
Starting sequence: PYL1, truncated, DHFR fusion (Arabidopsis thaliana); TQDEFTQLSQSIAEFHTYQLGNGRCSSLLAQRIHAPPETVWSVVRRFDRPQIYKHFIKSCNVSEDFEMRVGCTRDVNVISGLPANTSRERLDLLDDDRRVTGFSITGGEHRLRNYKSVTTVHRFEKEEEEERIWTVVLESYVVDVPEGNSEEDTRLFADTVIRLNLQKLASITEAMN
Variant | relative binding score
L138Q | 45.5%
E128P | 108%
E131I | 101%
Y18V | 88.5%
T160K | 85.6%
G71D | 70.2%
D144N | 78.4%
D75L | 105%
E125F | 105%
E129A | 108%
I162Q | -1.73%
T101P | -1.44%
G148A | 86.2%
S150W | 38.5%
V136L | 95.9%
F103V | 16.6%
S150M | 64%

Single results of other studies
Method: two-hybrid
Relative to: out of 4 tests
Direction: higher = firmer interaction
T1: itself; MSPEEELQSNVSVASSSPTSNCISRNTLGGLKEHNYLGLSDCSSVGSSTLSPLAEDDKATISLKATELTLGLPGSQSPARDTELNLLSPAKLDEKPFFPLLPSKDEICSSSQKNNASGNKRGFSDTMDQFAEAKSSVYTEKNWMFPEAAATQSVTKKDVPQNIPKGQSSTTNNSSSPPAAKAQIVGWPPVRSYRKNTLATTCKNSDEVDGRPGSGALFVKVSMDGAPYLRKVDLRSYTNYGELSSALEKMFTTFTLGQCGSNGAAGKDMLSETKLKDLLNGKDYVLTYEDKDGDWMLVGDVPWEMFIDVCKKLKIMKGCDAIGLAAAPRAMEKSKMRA
T2: itself; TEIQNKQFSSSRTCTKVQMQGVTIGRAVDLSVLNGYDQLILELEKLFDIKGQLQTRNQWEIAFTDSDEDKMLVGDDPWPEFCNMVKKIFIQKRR
T3: itself; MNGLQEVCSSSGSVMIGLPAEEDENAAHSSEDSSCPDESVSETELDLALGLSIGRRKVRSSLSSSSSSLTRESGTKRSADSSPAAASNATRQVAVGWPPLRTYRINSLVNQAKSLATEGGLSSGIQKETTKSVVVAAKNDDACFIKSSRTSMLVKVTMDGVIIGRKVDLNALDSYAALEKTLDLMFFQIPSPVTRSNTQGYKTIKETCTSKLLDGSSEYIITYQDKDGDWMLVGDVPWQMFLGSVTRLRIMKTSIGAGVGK
T4: itself; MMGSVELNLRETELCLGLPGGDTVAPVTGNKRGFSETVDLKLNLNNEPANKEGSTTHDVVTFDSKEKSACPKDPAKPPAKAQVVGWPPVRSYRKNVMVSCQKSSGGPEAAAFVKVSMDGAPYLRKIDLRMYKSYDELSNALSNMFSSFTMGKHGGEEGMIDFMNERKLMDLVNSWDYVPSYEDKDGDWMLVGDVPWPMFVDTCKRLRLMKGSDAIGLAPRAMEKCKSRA
B10: ARF12 500-593 (Arabidopsis thaliana, UniProt Q9XID4); chain TEIQNKQFSSSRTCTKVQMQGVTIGRAVDLSVLNGYDQLILELEKLFDIKGQLQTRNQWEIAFTDSDEDKMLVGDDPWPEFCNMVKKIFIQKRR
B11: IAA10 (Arabidopsis thaliana, UniProt Q38828); chain MNGLQEVCSSSGSVMIGLPAEEDENAAHSSEDSSCPDESVSETELDLALGLSIGRRKVRSSLSSSSSSLTRESGTKRSADSSPAAASNATRQVAVGWPPLRTYRINSLVNQAKSLATEGGLSSGIQKETTKSVVVAAKNDDACFIKSSRTSMLVKVTMDGVIIGRKVDLNALDSYAALEKTLDLMFFQIPSPVTRSNTQGYKTIKETCTSKLLDGSSEYIITYQDKDGDWMLVGDVPWQMFLGSVTRLRIMKTSIGAGVGK
B12: IAA17 (Arabidopsis thaliana, UniProt P93830); chain MMGSVELNLRETELCLGLPGGDTVAPVTGNKRGFSETVDLKLNLNNEPANKEGSTTHDVVTFDSKEKSACPKDPAKPPAKAQVVGWPPVRSYRKNVMVSCQKSSGGPEAAAFVKVSMDGAPYLRKIDLRMYKSYDELSNALSNMFSSFTMGKHGGEEGMIDFMNERKLMDLVNSWDYVPSYEDKDGDWMLVGDVPWPMFVDTCKRLRLMKGSDAIGLAPRAMEKCKSRA
Molecule | partner | positive tests
IAA9 (Arabidopsis thaliana, UniProt Q38827) | T1, itself | 2
B10 (ARF12 500-593) | T2, itself | 0
B11 (IAA10) | T3, itself | 2
B12 (IAA17) | T4, itself | 2
